Literature values as cited in several papers.
Each line is one published result; not all experiments were run side by side. ≈ marks a conversion by molar mass, not a printed value.
Sequence of UniProt Q9Y4K4 (whole entry, looked up): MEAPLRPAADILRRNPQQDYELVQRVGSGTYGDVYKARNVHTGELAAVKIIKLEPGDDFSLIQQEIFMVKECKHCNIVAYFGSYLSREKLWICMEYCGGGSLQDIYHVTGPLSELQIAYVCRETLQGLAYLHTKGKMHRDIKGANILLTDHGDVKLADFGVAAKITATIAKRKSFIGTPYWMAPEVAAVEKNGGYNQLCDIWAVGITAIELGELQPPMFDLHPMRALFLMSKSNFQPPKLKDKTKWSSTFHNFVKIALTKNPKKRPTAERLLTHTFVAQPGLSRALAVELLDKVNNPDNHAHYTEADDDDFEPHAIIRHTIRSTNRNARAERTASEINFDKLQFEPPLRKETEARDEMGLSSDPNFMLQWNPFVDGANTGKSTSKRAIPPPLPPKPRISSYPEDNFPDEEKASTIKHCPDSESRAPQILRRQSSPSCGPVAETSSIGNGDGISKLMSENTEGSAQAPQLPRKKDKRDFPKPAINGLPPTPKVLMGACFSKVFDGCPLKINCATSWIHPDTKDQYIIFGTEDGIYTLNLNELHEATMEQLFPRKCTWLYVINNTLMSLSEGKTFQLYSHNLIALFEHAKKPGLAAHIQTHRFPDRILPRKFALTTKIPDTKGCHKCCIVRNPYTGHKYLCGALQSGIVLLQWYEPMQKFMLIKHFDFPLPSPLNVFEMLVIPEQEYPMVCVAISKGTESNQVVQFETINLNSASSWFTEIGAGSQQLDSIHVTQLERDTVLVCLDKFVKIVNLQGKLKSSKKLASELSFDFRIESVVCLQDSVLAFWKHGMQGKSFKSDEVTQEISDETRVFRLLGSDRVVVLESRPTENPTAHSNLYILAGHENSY
Sequence of UniProt P06536 (whole entry, looked up): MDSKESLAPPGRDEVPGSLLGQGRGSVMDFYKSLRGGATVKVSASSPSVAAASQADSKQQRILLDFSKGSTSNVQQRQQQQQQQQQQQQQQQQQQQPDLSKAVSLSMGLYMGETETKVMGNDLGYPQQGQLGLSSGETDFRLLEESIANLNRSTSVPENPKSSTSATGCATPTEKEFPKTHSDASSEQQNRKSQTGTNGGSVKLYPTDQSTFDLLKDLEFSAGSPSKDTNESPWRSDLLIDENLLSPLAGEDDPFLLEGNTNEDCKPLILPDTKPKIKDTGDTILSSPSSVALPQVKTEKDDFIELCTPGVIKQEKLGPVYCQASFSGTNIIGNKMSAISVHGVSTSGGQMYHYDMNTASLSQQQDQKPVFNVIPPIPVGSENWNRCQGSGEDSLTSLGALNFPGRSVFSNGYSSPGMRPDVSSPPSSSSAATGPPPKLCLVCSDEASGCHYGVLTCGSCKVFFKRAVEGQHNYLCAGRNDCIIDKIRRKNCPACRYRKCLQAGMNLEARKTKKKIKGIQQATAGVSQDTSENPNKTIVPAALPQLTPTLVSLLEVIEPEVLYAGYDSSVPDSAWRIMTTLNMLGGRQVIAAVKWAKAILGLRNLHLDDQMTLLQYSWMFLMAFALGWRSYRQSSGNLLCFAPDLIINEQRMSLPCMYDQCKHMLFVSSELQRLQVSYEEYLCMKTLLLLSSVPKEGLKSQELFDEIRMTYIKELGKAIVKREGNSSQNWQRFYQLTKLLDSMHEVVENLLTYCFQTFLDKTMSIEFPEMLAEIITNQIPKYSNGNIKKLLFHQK

| SMILES | tested on | assay | test system | setting | scale | endpoint | value |
| --- | --- | --- | --- | --- | --- | --- | --- |
| C=CCC(CCC)C(=O)O (centres unmarked) | human neural embryonic cells | cell viability |  | unbound medium concentration |  | EC10 | 121 µM |
| C[Si]1(C)O[Si](C)(C)O[Si](C)(C)O[Si](C)(C)O1 | Pimephales promelas |  |  | concentration not given, together with: 14C-labelled compound |  | bioconcentration factor | 4300 L/kg wet weight |
| CO[C@]1(C(=O)N[C@@H](C)c2ccc(-n3cc(F)cn3)nc2)CC[C@H](c2nc(C)cc(Nc3cc(C)[nH]n3)n2)CC1 | BCRP |  | C2BBe1 | together with: fumitremorgin C |  | efflux ratio change | no effect |
| Nc1cc(C(F)(F)F)c(-c2nc(N3CCOCC3)nc(N3CCOCC3)n2)cn1 | Mitogen-activated protein kinase kinase kinase kinase 5 (MAP4K5, Homo sapiens, UniProt Q9Y4K4) | enzyme activity |  | 10 µM | baseline: untreated | remaining activity | 89% |
| CCNS(=O)(=O)C(F)(F)C(F)(F)C(F)(F)C(F)(F)C(F)(F)C(F)(F)C(F)(F)C(F)(F)F | CYP3A4 |  |  | concentration not given |  | activity | inactive |
| CCC(=O)O[C@]1(C(=O)SCF)[C@H](C)C[C@H]2[C@@H]3C[C@H](F)C4=CC(=O)C=C[C@]4(C)[C@@]3(F)[C@@H](O)C[C@@]21C | Glucocorticoid receptor (Nr3c1, Rattus norvegicus, UniProt P06536) |  | rat, spleen | intravenous, 90 nmol/kg, 7.033 (unit not given) |  | receptor occupancy | 11.2% |
| CC1(C)S[C@@H]2[C@H](NC(=O)[C@H](N)c3ccccc3)C(=O)N2[C@H]1C(=O)O | Pseudomonas aeruginosa |  | clinical isolate RKI-No_1/16 |  |  | MIC | > 16 µg/mL |
| CCCCC(C)C(=O)O (centres unmarked) | mouse D3 embryonic stem cells | cell differentiation, inhibitor |  | unbound medium concentration |  | IC10 | 875 µM |
| C[C@H]1COCCN1c1nc(-c2cnc(N)cc2C(F)F)nc(N2CCOCC2)n1 | SR |  |  |  |  | GI50 | 0.193 µM |
| CC(=O)O[C@H]1C(=O)[C@@]2(C)[C@H]([C@H](OC(=O)c3ccccc3)[C@]3(O)C[C@H](OC(=O)[C@H](O)[C@@H](NC(=O)c4ccccc4)c4ccccc4)C(C)=C1C3(C)C)[C@]1(OC(C)=O)CO[C@@H]1C[C@@H]2O | DLD-1 (Pgp+ drug-resistant) | cytotoxicity |  |  |  | IC50 | 0.364 µM |
| CNC(C)C1CCC(N)C(OC2C(N)CC(N)C(OC3OCC(C)(O)C(NC)C3O)C2O)O1 (centres unmarked) | Pseudomonas aeruginosa |  | clinical isolate RKI-No_1/16 |  |  | MIC | 2 µg/mL (≈ 4.19 µM) |
| COCCc1ccc(OCC(O)CNC(C)C)cc1 (centres unmarked) |  |  | human fasted | 200 mg multiple doses, day 5, mean |  | AUC(0-24 h) | 1540 ng·h/mL |
| CCCCCC(CCC)C(=O)O (centres unmarked) | mouse D3 embryonic stem cells | cell differentiation, inhibitor |  | unbound medium concentration |  | IC10 | 116 µM |
| CNCc1cc(-c2ccccc2F)n(S(=O)(=O)c2cccnc2)c1 |  |  | human, plasma | 30 mg single dose, observed clinical data |  | Cmax | 35.7 ng/mL |
| CC(=O)Nc1ccc(O)cc1 | UGT1A9 | substrate |  |  |  | Km | 9.2 mM |
| CC[C@H]1OC(=O)[C@H](C)[C@@H](O[C@H]2C[C@@](C)(OC)[C@@H](O)[C@H](C)O2)[C@H](C)[C@@H](O[C@@H]2O[C@H](C)C[C@H](N(C)C)[C@H]2O)[C@](C)(OC)C[C@@H](C)C(=O)[C@H](C)[C@@H](O)[C@]1(C)O | P-glycoprotein (ABCB1) | inhibitor | liver | Simcyp library default value |  | Ki | 4 µM |
| C=C(F)C(=O)N1CCN(c2nc(OC[C@@H]3CCCN3C)nc3c2CCN(c2cccc4cccc(Cl)c24)C3)C[C@@H]1CC#N |  |  | patients, advanced solid tumours | dose not given |  | volume of distribution | ~942 L |
